Measurements pooled from the literature.
A part holds a random share of what one study measured. Positions count from the first letter of the parent shown.

Series 1 — technique: RNA Bind-n-Seq; form: RNA; sample: in vitro; concentration: 1 µM; notes: whole 134-nt RNA, ends assumed; added: 150 mM KCl; reference: input library; reading: higher = stronger binding
Target: Ras GTPase-activating protein-binding protein 1, RRM domain (G3BP1, Homo sapiens, UniProt Q13283)
Sequence of UniProt Q13283 (whole entry, looked up): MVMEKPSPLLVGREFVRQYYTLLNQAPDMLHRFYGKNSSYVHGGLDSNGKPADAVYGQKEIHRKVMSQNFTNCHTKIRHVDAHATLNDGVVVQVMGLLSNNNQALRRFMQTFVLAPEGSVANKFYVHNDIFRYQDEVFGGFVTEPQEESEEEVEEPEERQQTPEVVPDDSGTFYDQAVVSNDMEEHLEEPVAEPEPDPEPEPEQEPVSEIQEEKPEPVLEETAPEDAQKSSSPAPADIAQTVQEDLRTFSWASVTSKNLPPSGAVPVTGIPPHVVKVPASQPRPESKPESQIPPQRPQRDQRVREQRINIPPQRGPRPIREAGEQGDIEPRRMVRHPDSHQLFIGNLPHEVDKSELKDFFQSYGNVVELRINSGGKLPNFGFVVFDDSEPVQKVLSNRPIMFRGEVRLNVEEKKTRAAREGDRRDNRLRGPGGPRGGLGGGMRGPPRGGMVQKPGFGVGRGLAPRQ
Shared flanks, not repeated: GGGAGUUCUACAGUCCGACGAUC … UGGAAUUCUCGGGUGUCAAGG
Sequence	log2 enrichment
AGUCCUGUGCUACACAUCGUAUGUACCGAAUCGGAAAAAGGGGAAAAAGGAAAAAGGAAAGUAUUAUGUUACGCCGUUCGGAUCUGCACU	-0.0129
UGGGAGGUGGAUUUUGUUUAUUUUUUUAGCUCAUUUCCAGGGGUGGGAAUUUUUUUUUAAUAUGUAUCAUGAAUAAAGUUGUUUUUGAAA	1.55
ACCAUGCAGGUGGGCAUCUUUGGGAAGUGGGGCAAGGGGGGGAUCGGGAGGGGGGUAACACUUUGGGAACAGGUGGUCCCAGGUCGUUUC	0.446
AAGUCCUGUGCUACACAUCGUAUGUACCGAAUCGGUUUUGGUUUUGGGGUUUUGGGGAAAGUAUUAUGUUACGCCGUUCGGAUCUGCACU	-0.209
UGGCCCUGGUCGCAUGCGGGGAGGAAGAGGUGGCCUCAUGGAUCGUGGUGGUCCCGGUGGAAUGUUCAGAGGUGGCCGUGGUGGAGACAG	0.913
UGGGAGGUGGAUUUUGUUUAUUUUUUUAGCUCAUUUCCAGGGGUGGGAAUUUUUUUUUAAUAUGUGUCAUGAAUAAAGUUCUUUUUGAAA	2.27
UAACUUUAGAGGAGGAUCUGAUGGAAAUGGCAGUGGACGUGGAUUUGGGGAUGGCUAUAAUGGGUAUGGAGGAGGACCUGGAGGUGGCAA	-0.808
ACCAUGCAGGUGGGCAUCUUUGGGAAGUGGGGCAAGGGGGGGAUAGGGAGGAGGGUAACACUUUGGGAACAGGUGGUCCCAGGUCGUUUC	0.285
ACCAUGCAGGUGGGCAUCUUUUGGAAGUGGGGCAAGGGGGGGAUAGGGAGGGGGGUAACACUUUGGGAACAGGUGGUCCCAGGUCGUUUC	-0.508
CUGUGCUACACAUCGUAUGUACCGAAUCGGGGCCCCCCGGGGCCCCCCGGGCCCCCCGGGGAAAGUAUUAUGUUACGCCGUUCGGAUCUG	-0.766
AGUCCUGUGCUACACAUCGUAUGUACCGAAUCGGGUGGGUUUUUUUGGGUUUUUGGGAAAGUAUUAUGUUACGCCGUUCGGAUCUGCACU	0.299
UUCCAACAGUUAUGGGAUCCCAGAACCUGCUCAUGCAUACGCUCAACCUCAGACCACAACUCCUCUACCUGCAGUUUCCGGUUCUCCUGG	-0.0115
AAGUCCUGUGCUACACAUCGUAUGUACCGAAUCGGGAAAAAGGGUUUGGGUUUGGGAAAGUAUUAUGUUACGCCGUUCGGAUCUGCACUU	0.519
UCCUGUGCUACACAUCGUAUGUACCGAAUCAAACCCCCCCAAAUUUUUUUAAAUUUAAAAAAGUAUUAUGUUACGCCGUUCGGAUCUGCA	-0.356

Series 2 — technique: protein-binding microarray; form: double-stranded DNA, one strand shown; sample: in vitro; concentration: 250 nM; notes: 60-bp whole probe; added: salmon DNA 0.4 mg/ml; reference: random background probes; reading: higher = stronger binding; shared flanks, not repeated: GCCTAGCAC … GTCTTGATTCGCTTGACGCTGCTG
Target: Interferon regulatory factor 7, full length, phosphomimetic (IRF7, Homo sapiens, UniProt Q92985, residues 1-503, S101K/S471D/S472D/S475D/S476D/S477D/S483D/S484D/S487D)
Residues (chain): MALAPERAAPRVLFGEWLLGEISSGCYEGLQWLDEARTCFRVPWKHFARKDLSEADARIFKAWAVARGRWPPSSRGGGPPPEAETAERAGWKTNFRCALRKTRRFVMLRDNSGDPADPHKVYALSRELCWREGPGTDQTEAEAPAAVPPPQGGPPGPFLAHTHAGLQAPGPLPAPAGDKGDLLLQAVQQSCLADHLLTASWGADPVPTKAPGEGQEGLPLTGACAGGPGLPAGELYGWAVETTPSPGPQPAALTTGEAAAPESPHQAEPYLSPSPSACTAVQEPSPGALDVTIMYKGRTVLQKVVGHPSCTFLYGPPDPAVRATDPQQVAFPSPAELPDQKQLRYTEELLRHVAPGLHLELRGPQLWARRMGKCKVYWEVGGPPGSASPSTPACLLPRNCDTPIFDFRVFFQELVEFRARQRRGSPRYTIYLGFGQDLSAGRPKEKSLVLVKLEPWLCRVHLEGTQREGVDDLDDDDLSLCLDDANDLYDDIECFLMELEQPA
Sequence	log fluorescence
GACGAACCGAGACTGGAGACGTGCTAG	1.39 z-score
GGTGTTTTACAGGTTCTCTTTGTGCTA	0.0277 z-score
GACGGTCTCCGACTGGGGACGTGCTAG	-0.55 z-score
GACGGGTTCGGGTTTCGGGACGTGCTA	4.08 z-score
GACGGACTGCTGATCCTGACGTGCTAG	-0.875 z-score
TTAGGTCTCAGTTTCGGTTAGTGCTAG	8.53 z-score
TTAGATTTCGGGTTTCTATTAGTGCTA	3.91 z-score
GACGGTCTCCTTTTCATGACGTGCTAG	0.972 z-score
TTAGATCTCTGTTTCGATTAGTGCTAG	3.99 z-score
ATCATTTTAGTTTTCATTATGTGCTAG	1.72 z-score
TAAGATCTCAGTATCGATTAGTGCTAG	1 z-score
TTAGAAATGGGGTTTCGATTAGTGCTA	6.66 z-score
TCACATTTCAATTAGAAACTGTGCTAG	1.83 z-score
CTAGGTCTCCTTATCCTTTAGTGCTAG	0.71 z-score
TTAGCTATCGGTATCGGTTAGTGCTAG	0.973 z-score
GACGGTCTCCTTATCCAGACGTGCTAG	0.181 z-score
TTAGGTTCCGGTTCCGGTTAGTGCTAG	6.06 z-score
GACGGTTTTCTTTCCCTGACGTGCTAG	2.07 z-score
TTTTTTTTCACTATTGCTTCGTGCTAG	1.45 z-score
GACGGACTGGACTATCGGTACGTGCTA	-0.62 z-score
GACGGTCTCGGTATCGGGGCGTGCTAG	1.66 z-score
TTAGGTATCCTTCTGCTTTAGTGCTAG	0.291 z-score
GGCGGTTTCCTACTGCTGACGTGCTAG	0.745 z-score
CTGGGCAGGATGAGTTCCAGGTGCTAG	1.1 z-score
GTAGGTATCGGGTATCGGTTAGTGCTA	1.17 z-score

Series 3 — technique: protein-binding microarray; form: hairpin DNA; sample: in vitro; concentration: not given; reference: not given; reading: higher = stronger binding; shared flanks, not repeated: GAGGCCG … CGGCCTCACACTC
Target: Krueppel-like factor 3, full length (KLF3, Homo sapiens, UniProt P57682, residues 1-345)
Sequence of UniProt P57682 (whole entry, looked up): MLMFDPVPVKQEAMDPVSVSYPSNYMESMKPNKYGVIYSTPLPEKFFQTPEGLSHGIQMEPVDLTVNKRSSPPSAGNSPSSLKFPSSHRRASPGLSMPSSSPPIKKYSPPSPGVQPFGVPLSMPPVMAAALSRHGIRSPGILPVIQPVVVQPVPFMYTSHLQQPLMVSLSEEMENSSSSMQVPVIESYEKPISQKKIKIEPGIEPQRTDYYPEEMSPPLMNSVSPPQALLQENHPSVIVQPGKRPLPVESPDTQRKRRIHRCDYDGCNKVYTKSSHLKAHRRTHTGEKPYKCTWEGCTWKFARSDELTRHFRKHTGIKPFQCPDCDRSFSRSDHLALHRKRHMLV
Notes: whole hairpin DNA, median over replicate spots
Sequence	median fluorescence
CCCACGCCCAGCCTCCTGGCTGGGCGTGGG (5mC at 8)	8980 a.u.
ACCACGCGCAGCCTCCTGGCTGCGCGTGGT	22500 a.u.
CGCACGCCCAGCCTCCTGGCTGGGCGTGCG (5mC at 8 36)	9370 a.u.
ACCGCGCGCAGCCTCCTGGCTGCGCGCGGT (5mC at 14)	12300 a.u.
ACGACGCCCAGCCTCCTGGCTGGGCGTCGT (5mC at 9 35)	8030 a.u.
ACCGCGCCCAGCCTCCTGGCTGGGCGCGGT (5mC at 10 12 32 34)	8510 a.u.
ACCACGCCCAGCCTCCTGGCTGGGCGTGGT	9860 a.u.
ACCACGGCCAGCCTCCTGGCTGGCCGTGGT	8470 a.u.
ACCGCGACCAGCCTCCTGGCTGGTCGCGGT	8620 a.u.
ACGGCGCCCAGCCTCCTGGCTGGGCGCCGT	8610 a.u.
ACCACGCCCAGCCTCCTGGCTGGGCGTGGT (5mC at 38)	9670 a.u.
ACCGCGCGCAGCCTCCTGGCTGCGCGCGGT	10800 a.u.
ACCGGGCCCAGCCTCCTGGCTGGGCCCGGT (5mC at 33)	7880 a.u.
ACAGCGCCCAGCCTCCTGGCTGGGCGCTGT	8560 a.u.

Series 4 — technique: DHFR PCA, deep sequencing; sample: yeast; added: (+)-ABA 200 µM; reference: wild-type fitted maximum; reading: higher = stronger binding
Target: ABI1, truncated, D143A, DHFR fusion (Arabidopsis thaliana)
Notes: methotrexate growth selection, single substitutions
Starting sequence: PYL1, truncated, DHFR fusion (Arabidopsis thaliana); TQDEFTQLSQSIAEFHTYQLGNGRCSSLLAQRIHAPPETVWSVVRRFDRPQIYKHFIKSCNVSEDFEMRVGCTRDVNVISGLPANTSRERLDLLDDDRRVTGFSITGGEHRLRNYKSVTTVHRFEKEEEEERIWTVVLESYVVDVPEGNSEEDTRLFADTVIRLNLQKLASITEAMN; partner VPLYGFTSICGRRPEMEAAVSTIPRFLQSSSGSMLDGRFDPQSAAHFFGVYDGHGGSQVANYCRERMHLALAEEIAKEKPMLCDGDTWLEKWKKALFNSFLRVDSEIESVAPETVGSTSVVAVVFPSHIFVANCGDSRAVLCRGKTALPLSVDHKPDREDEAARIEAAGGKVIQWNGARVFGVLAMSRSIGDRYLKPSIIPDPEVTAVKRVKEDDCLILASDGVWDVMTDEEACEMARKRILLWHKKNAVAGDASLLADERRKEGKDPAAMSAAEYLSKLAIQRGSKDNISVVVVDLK
Substitution	relative binding score
A158W	1.31%
E125Y	101%
L169R	-1.64%
D95P	-10.3%
G102I	40.9%
Q167G	91.7%
A170R	99.4%
M176R	103%
M176I	97.8%
F56C	80.3%
A13L	95.2%
E131G	117%
M176A	101%
P83E	75.2%
R132L	105%
E147G	87.4%
T73A	89.8%

For quick reference, copied from above (series 3):
Sequence	median fluorescence
ACCACGCGCAGCCTCCTGGCTGCGCGTGGT	22500 a.u.
CGCACGCCCAGCCTCCTGGCTGGGCGTGCG (5mC at 8 36)	9370 a.u.
ACCGCGCGCAGCCTCCTGGCTGCGCGCGGT (5mC at 14)	12300 a.u.
ACGACGCCCAGCCTCCTGGCTGGGCGTCGT (5mC at 9 35)	8030 a.u.
ACCGCGCCCAGCCTCCTGGCTGGGCGCGGT (5mC at 10 12 32 34)	8510 a.u.
ACCACGCCCAGCCTCCTGGCTGGGCGTGGT	9860 a.u.
ACCACGGCCAGCCTCCTGGCTGGCCGTGGT	8470 a.u.
ACCGCGACCAGCCTCCTGGCTGGTCGCGGT	8620 a.u.
ACGGCGCCCAGCCTCCTGGCTGGGCGCCGT	8610 a.u.
